Experimental data gathered from unrelated publications.
A part holds a random share of what one study measured.

Study 1 — method: aptamer microarray, sandwich; molecule type: DNA with 2'F-ANA; medium: in vitro; concentration: 200 nM; added: Cy3 exosite-II aptamer, 400 nM; direction: higher = stronger binding
Target: Prothrombin, mature alpha-thrombin (F2, Homo sapiens, UniProt P00734)
Setting: whole 15-mer aptamer, many near background
| Oligonucleotide | mean fluorescence intensity |
| --- | --- |
| GGTTGGTGTGGTTGG (2'F-ANA at 3 6 12) | 1320 a.u. |
| GGTTGGTGTGGTTGG (2'F-ANA at 1 2 4 6 7 11) | 85 a.u. |
| GGTTGGTGTGGTTGG (2'F-ANA at 1 3 7 9 10 11 14 15) | 59.4 a.u. |

Study 2 — method: protein binding microarray; molecule type: double-stranded DNA, one strand shown; medium: in vitro; concentration: not given; relative to: not given; direction: higher = stronger binding
Target: Histone acetyltransferase KAT6A, both winged helices, GST fusion (KAT6A, Homo sapiens, UniProt Q92794, residues 1-181)
Setting: 8-mer, flanks averaged, mean of 2 arrays, mostly near background
Target sequence (chain): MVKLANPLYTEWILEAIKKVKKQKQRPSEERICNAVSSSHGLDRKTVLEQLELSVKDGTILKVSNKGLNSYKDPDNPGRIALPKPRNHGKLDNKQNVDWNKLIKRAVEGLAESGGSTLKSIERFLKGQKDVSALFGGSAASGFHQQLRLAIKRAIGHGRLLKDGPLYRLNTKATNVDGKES
| Oligonucleotide | E-score |
| --- | --- |
| ACGTTCCG | 0.134 |
| GCATGCGC | 0.309 |
| CGCACTTC | 0.121 |
| CGGAGGAA | 0.0679 |

Study 3 — method: universal PBM; molecule type: double-stranded DNA, one strand shown; medium: in vitro; concentration: not given; direction: higher = stronger binding
Target: Sal-like protein 4, full length isoform B (SALL4, Homo sapiens, UniProt Q9UJQ4-2, residues 1-616)
Setting: 8-mer, flanks averaged, mean of replicates
Residues (chain): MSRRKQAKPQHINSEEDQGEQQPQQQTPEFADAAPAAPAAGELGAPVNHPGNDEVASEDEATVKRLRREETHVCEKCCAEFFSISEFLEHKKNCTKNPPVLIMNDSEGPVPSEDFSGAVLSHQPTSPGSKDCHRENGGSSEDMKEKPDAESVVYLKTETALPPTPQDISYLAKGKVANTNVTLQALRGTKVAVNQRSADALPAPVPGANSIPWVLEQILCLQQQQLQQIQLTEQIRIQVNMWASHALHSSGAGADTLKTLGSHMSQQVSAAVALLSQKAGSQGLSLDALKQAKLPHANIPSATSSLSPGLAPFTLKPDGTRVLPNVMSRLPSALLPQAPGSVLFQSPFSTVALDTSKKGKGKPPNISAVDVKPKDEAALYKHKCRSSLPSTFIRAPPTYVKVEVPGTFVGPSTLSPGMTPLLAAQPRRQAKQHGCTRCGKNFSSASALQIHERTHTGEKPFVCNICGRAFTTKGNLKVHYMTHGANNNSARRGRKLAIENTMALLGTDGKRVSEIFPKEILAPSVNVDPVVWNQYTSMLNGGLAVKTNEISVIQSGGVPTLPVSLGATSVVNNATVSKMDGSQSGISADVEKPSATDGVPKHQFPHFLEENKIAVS
| Oligonucleotide | E-score |
| --- | --- |
| ACTGGTAT | 0.021 |
| ATTATTAA | 0.454 |
| GACCGCTC | -0.12 |

Single results of other studies
| Molecule | target | assay | system | conditions | how to read | measurement | result |
| --- | --- | --- | --- | --- | --- | --- | --- |
| PhoQ, residues 284 288 289 292 302 303 ALAMYF | PhoP, residues 12 14 15 18 19 VQGLL (Escherichia coli, UniProt P23836) | Sort-seq, item: YFP reporter | E. coli | PhoQ-PhoP variant library, added: 10 µM Mg2+ | relative to: high Mg2+ state, higher = stronger signaling | fold induction | 4.5 |

Some of these lines once more (study 2):
| Oligonucleotide | E-score |
| --- | --- |
| CGCACTTC | 0.121 |
| CGGAGGAA | 0.0679 |
